{"data": "Measured values gathered from unrelated publications", "note": "Parts stem from different laboratories: compare values within a part only."}
{"data": "Block 1", "target": "Replicase polyprotein 1ab, main protease (rep, Severe acute respiratory syndrome coronavirus 2, UniProt P0DTD1)", "observed": "enzyme activity", "action": "inhibitor", "tested at": "20 µM", "notes": "hit confirmation"}
{"SMILES": "COC(=O)CC[C@H](NC(=O)[C@H](CC(=O)OC)NC(=O)OCc1ccccc1)C(=O)N[C@H](C(=O)N[C@@H](CC(=O)OC)C(=O)CF)C(C)C", "inhibition": "110%"}
{"SMILES": "O=C1OC2(c3ccccc31)c1cc(Br)c(O)c(Br)c1Oc1c2cc(Br)c(O)c1Br", "inhibition": "97.7%"}
{"SMILES": "CC(=O)N=c1sc(S(N)(=O)=O)nn1C", "inhibition": "12.3%"}
{"SMILES": "CCCCCCCCCCCCCCCC[n+]1ccn(Cc2ccccc2)c1C", "inhibition": "77.8%"}
{"data": "Block 2", "target": "Interferon regulatory factor 7, full length, phosphomimetic (IRF7, Homo sapiens, UniProt Q92985, residues 1-503, S101K/S471D/S472D/S475D/S476D/S477D/S483D/S484D/S487D)", "technique": "protein-binding microarray", "form": "double-stranded DNA, one strand shown", "matrix": "in vitro", "tested at": "250 nM", "notes": "60-bp whole probe", "with": "salmon DNA 0.4 mg/ml", "reference": "random background probes", "direction": "higher = stronger binding", "all sequences stand within": "GCCTAGCAC … GTCTTGATTCGCTTGACGCTGCTG", "Target sequence (chain)": "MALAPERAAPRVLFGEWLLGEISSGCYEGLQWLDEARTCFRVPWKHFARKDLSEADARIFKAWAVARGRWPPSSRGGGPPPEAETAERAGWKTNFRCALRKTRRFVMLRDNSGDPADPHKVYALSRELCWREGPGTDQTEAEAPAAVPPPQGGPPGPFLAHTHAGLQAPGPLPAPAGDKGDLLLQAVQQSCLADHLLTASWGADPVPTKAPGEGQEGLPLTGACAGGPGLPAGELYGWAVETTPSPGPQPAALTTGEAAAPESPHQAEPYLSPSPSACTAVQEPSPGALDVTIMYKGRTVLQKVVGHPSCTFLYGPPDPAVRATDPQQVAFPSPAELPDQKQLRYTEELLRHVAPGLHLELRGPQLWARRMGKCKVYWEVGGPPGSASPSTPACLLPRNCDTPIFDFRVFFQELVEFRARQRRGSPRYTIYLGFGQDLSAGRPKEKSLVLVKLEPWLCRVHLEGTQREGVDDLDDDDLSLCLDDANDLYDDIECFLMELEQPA"}
{"Oligonucleotide": "GACGGTATGGGACTGGGGACGTGCTAG", "log fluorescence [z-score]": -0.367}
{"Oligonucleotide": "TCAATACTCTTCCATGGAACTGTGCTA", "log fluorescence [z-score]": 0.55}
{"Oligonucleotide": "GACGGTATCGGGACAGGGGACGTGCTA", "log fluorescence [z-score]": -0.184}
{"Oligonucleotide": "TTAGAACTGTGACTGGATTAGTGCTAG", "log fluorescence [z-score]": 0.0974}
{"Oligonucleotide": "TTAGGTTTCCTTTCCATTTAGTGCTAG", "log fluorescence [z-score]": 4.2}
{"Oligonucleotide": "AAACCTATAGGGCCTGACTTCGTGCTA", "log fluorescence [z-score]": -0.135}
{"Oligonucleotide": "TTAGGTTTCGACACTTGGTTAGTGCTA", "log fluorescence [z-score]": 3.29}
{"Oligonucleotide": "CATTTATTTACTCTCTACATGTGCTAG", "log fluorescence [z-score]": 2.19}
{"data": "Block 3", "cell line": "HEK-293T", "observed": "pseudovirus infection", "technique": "FDA-approved drug library screen", "organism": "VSV pseudotyped with SARS-CoV-2 spike", "tested at": "10 µM", "time": "16 h", "reference": "vehicle-treated"}
{"Compound": "O=C(O)c1cc(/N=N/c2ccc(S(=O)(=O)Nc3ccccn3)cc2)ccc1O", "GFP-positive cells": "96.1%"}
{"Compound": "CC1(C)S[C@@H]2[C@H](NC(=O)[C@H](NC(=O)N3CCNC3=O)c3ccccc3)C(=O)N2[C@H]1C(=O)O", "GFP-positive cells": "105%"}
{"Compound": "CC1(C)O[C@@H]2C[C@H]3[C@@H]4CCC5=CC(=O)C=C[C@]5(C)[C@@]4(F)[C@@H](O)C[C@]3(C)[C@]2(C(=O)CO)O1", "GFP-positive cells": "98.1%"}
{"Compound": "O=C(O[C@H]1C[C@H]2CC[C@@H](C1)[N+]21CCCC1)C(O)(c1ccccc1)c1ccccc1", "GFP-positive cells": "75.7%"}
{"data": "Mixed results"}
{"Compound": "Cc1c(-c2cnccn2)ssc1=S", "target": "Replicase polyprotein 1ab, nsp13 helicase (rep, Severe acute respiratory syndrome coronavirus 2, UniProt P0DTD1)", "measurement": "IC50", "value": "3.33 µM"}
{"note": "A few entries again (block 2):"}
{"Oligonucleotide": "TTAGGTTTCGACACTTGGTTAGTGCTA", "log fluorescence [z-score]": 3.29}
